Assay results gathered from unrelated publications.
± marks the error that the study gave.
B1: uvrD1 1-725 (Mycobacterium tuberculosis, UniProt P9WMQ1); chain MSVHATDAKPPGPSPADQLLDGLNPQQRQAVVHEGSPLLIVAGAGSGKTAVLTRRIAYLMAARGVGVGQILAITFTNKAAAEMRERVVGLVGEKARYMWVSTFHSTCVRILRNQAALIEGLNSNFSIYDADDSRRLLQMVGRDLGLDIKRYSPRLLANAISNLKNELIDPHQALAGLTEDSDDLARAVASVYDEYQRRLRAANALDFDDLIGETVAVLQAFPQIAQYYRRRFRHVLVDEYQDTNHAQYVLVRELVGRDSNDGIPPGELCVVGDADQSIYAFRGATIRNIEDFERDYPDTRTILLEQNYRSTQNILSAANSVIARNAGRREKRLWTDAGAGELIVGYVADNEHDEARFVAEEIDALAEGSEITYNDVAVFYRTNNSSRSLEEVLIRAGIPYKVVGGVRFYERKEIRDIVAYLRVLDNPGDAVSLRRILNTPRRGIGDRAEACVAVYAENTGVGFGDALVAAAQGKVPMLNTRAEKAIAGFVEMFDELRGRLDDDLGELVEAVLERTGYRRELEASTDPQELARLDNLNELVSVAHEFSTDRENAAALGPDDEDVPDTGVLADFLERVSLVADADEIPEHGAGVVTLMTLHTAKGLEFPVVFVTGWEDGMFPHMRALDNPTELSEERRLAYVGITRARQRLYVSRAIVRSSWGQPMLNPESRFLREIPQELIDWRRTAPKPSFSAPVSGAGRFGSARPSPTRSGASRRPLLVLQVGD
B2: rv1218c (Mycobacterium tuberculosis, UniProt O86311); chain MSADNHQVPIEIRGLTKHFGSVRALDGLDLTVREGEVHGFLGPNGAGKSTTLRILLGLVKADGGSVRLLGGDPWTDAVDLHRHIAYVPGDVTLWPSLTGGETIDLLARMRGGIDNARRAELIERFGLDPTKKARTYSKGNRQKVSLISALSSHATLLLLDEPSSGLDPLMENVFQQCIGEARQRGVTVLLSSHILAETEALCEKVTIIRAGKTVESGSLDALRHLSRTSIKAEMIGDPGDLSQIKGVEDISIEGTTVRAQVDSESLRELIQVLGHAGVRSLVSQPPTLEELFLRHYSLGPEVAAEQQVATP
B3: protein 16-102 K79A/R82A/R83A (Mycobacterium tuberculosis, UniProt P96276); chain EVADGLTRREHDILAFERQWWKFAGVKEEAIKELFSMSATRYYQVLNALVDRPEALAADPMLVARLAALRASRQKARAARRLGFEVT

Substance | target or system | assay | test system | conditions | measurement | result
B1 (uvrD1 1-725) | itself | AUC | – | – | binding | binds
nsp5 mature L141R (SARS-CoV-2) | itself | native MS | – | – | subunits per oligomer | 2
pdtaS C57A (Mycobacterium tuberculosis) | itself | MST | – | – | Kd | 0.608 µM
Mrc1 (Mus musculus, UniProt Q61830) | S full length trimer R683A/R685A (SARS-CoV-2) | ELISA | – | – | Kd | 0.000317 µM
B2 (rv1218c) | Rv1217c (Mycobacterium tuberculosis, UniProt O05318) | cryo-EM | – | – | binding | binds
MLEPFQILSISSFILSALHFMAWTIGALNQIKR (BM2 transmembrane domain H27A (Influenza B virus)) | – | solid-state NMR, item: His19 | peptide, VM+ membrane pellets | membrane-bound tetramer, no drug, fourth protonation | pKa | 7.8
B3 (protein 16-102 K79A/R82A/R83A) | itself | cross-linking | – | – | binding | binds
main protease S147N (SARS-CoV-2) | itself | native MS | – | 5 µM, apo | dimer fraction | 8 ± 1%
nsp9 mature N96D (SARS-CoV-2) | itself | SEC | – | – | subunits per oligomer | 2
main protease S10C (SARS-CoV-2) | itself | native MS | – | 5 µM, apo | dimer fraction | 12 ± 1%
HN ectodomain, N-glycosylated, disulfide-linked dimer (parainfluenza virus 5) | itself | negative-stain EM | – | – | subunits per oligomer | 4
pdtaS H67A (Mycobacterium tuberculosis) | itself | MST | – | – | Kd | 8.78 µM
HA/foldon ectodomain with foldon (influenza B virus) | itself | SEC | – | – | subunits per oligomer | > 9 HA monomers
main protease C145A (SARS-CoV-2) | itself | native MS | – | 5 µM, apo | dimer fraction | 100%
HA ectodomain HA2 E47K (influenza A H1N1 A/California/04/2009) | itself | cryo-EM | – | – | subunits per oligomer | 3
3CLpro G11S (SARS-CoV-2) | itself | steady-state kinetics | – | – | Kd | 10 µM
